# Measurements from different studies.
# Lines come from different studies, so protocols differ.
# Target: Mitogen-activated protein kinase 7 (MAPK7, Homo sapiens, UniProt Q13164)
Structure (SMILES),assay,system,conditions,how to read,measurement,value
COc1cc(Nc2nccc(-c3cnn4nc(OC)ccc34)n2)cc(C(F)(F)F)c1,"binding, competition with immobilised ligand",,1 µM,,remaining binding,98%
C=CC(=O)N1CCc2ccc(-n3c(=O)ccc4cnc5ccc(-c6cnn(C)c6)cc5c43)cc21,KINOMEscan,,1 µM,reference: DMSO control,remaining binding,100%
NC(=O)C[C@H]1CCc2sc3ncnc(O[C@H]4CC[C@H](N5CCOCC5)CC4)c3c21,"enzyme activity, inhibitor",,10 µM,,inhibition,3%
C=CC(=O)N1Cc2nc(-c3cc(-c4cc(Cl)cnc4Cl)c(F)cc3F)n(-c3ccncn3)c2C1,"cell-free assay, inhibitor",,1 µM,,inhibition,10.8%
C[C@]1(O)CCCN(c2nc(Nc3ccc(S(=O)(=O)N[C@H]4CC[C@H](CN5CCN(c6ccc(C7CCC(=O)NC7=O)cc6F)CC5)CC4)cc3)ncc2C(F)(F)F)C1 (stereo partly drawn),"binding, competition with immobilised ligand",,1 µM,,remaining binding,9.1%
CN1CCN(Cc2ccc(-c3ccc(CO[C@H]4CCC[C@@H]4NC(=O)c4cc(-c5cnn(C)c5)cnc4N)cc3)cc2)CC1,"enzyme activity, inhibitor",,0.1 µM,,inhibition,10%
CCN1CCN(Cc2ccc(C(=O)Nc3ccc(C)c(NCc4cnc5[nH]ccc5c4OC)c3)cc2C(F)(F)F)CC1,"binding, competition with immobilised ligand",,1 µM,,remaining binding,100%
C=CC(=O)N1CCCC(n2c(=O)c3ncccc3n(Cc3ccc(Oc4ccccc4)cc3)c2=O)C1 (stereo not drawn),"cell-free assay, competition with immobilised ligand",,1 µM,,remaining binding,55%
CNC1C[S+]2CC[S+]3CC[S+](C1)[Ru-4]321([N]=C=S)[n]2c3ccc(OC)cc3c3c4c(c5cc(F)c[n+]1c5c32)C(=O)NC4=O (stereo not drawn),KinomeScan,,0.1 µM,reference: untreated,remaining binding,45%
CC(C)=CC1OC(C)(C)C2C=C3C(=O)C(Cl)=CC(O)C3C3C(O)C4OC4C(=O)C132 (stereo not drawn),"cell-free assay, competition with immobilised ligand",,10 µM,,remaining binding,75%
CCn1cc(C(=O)O)c(=O)c2c(N)c(F)c(NC3CCCCC3)cc21,kinase activity,,"0.1 µM, added: ATP at Km",,inhibition,6.6%
CS(=O)(=O)Nc1cccc(-c2csc3cnc(Nc4ccc(N5CCN(CCCCCOc6cccc7c6C(=O)N(C6CCC(=O)NC6=O)C7=O)CC5)cc4)nc23)c1 (stereo not drawn),"probe labelling, inhibitor, KiNativ chemoproteomics",MOLT-4,1 µM,,inhibition,30.1%
C=CC(=O)Nc1cc(-c2nn(C3CCN(CCNC(=O)[C@H](C)CCC45CC6CC(CC(C6)C4)C5)CC3)c3ncnc(N)c23)ccc1Oc1ccccc1,"inhibitor, KiNativ profiling",biochemical,2 µM,,inhibition,16.3%
Cc1cnc2nc1Nc1cccc(c1)COC/C=C/COCc1cc(ccc1OCCN1CCOCC1)N2,"binding, competition with immobilised ligand",,0.1 µM,,remaining binding,99%
COc1cc(Nc2nc(C)cc(-c3cnn4nc(OC)ccc34)n2)cc(C(F)(F)F)c1,inhibitor,,"1 µM, ERK5",reference: control,remaining activity,83%
NC(=O)[C@@H](O)C[C@H]1CCc2sc3ncnc(O[C@H]4CC[C@H](N5CCOCC5)CC4)c3c21,"enzyme activity, inhibitor",,10 µM,,inhibition,3%
Nc1ncc(-c2cc(-c3cnn(CC(F)(F)F)c3)ncc2F)nc1C(=O)NC1CNCC(F)C1 (stereo not drawn),enzyme activity,,1 µM,reference: DMSO control,remaining activity,95.3%
Nc1ncc2c(n1)-c1c([nH]c3ccc(C4=CCOCC4)cc13)CCC2,"binding, competition with immobilised ligand",,1 µM,,remaining binding,79%
Cc1ccc(-c2c(/C=C(\C#N)C(=O)NC(C)C)n(CCCO)c3ncnc(N)c23)cc1,"cell-free assay, competition with immobilised ligand",,1 µM,,remaining binding,97%
CNC(=O)C1CCN(c2cc(C)c(F)cc2NC(=O)c2ccc(-c3cc(O)ccc3C)c(C)c2)CC1,"binding, competition with immobilised ligand",,1 µM,,remaining binding,100%
COc1c(Cl)cccc1Nc1c(-c2ccncc2C#C[C@@]2(C)CCCN2C(=O)/C=C/CN(C)C)[nH]c2c1C(=O)NCC2,"binding, competition with immobilised ligand",,3 µM,,remaining binding,97%

# A few entries again:
Structure (SMILES),assay,system,conditions,how to read,measurement,value
CS(=O)(=O)Nc1cccc(-c2csc3cnc(Nc4ccc(N5CCN(CCCCCOc6cccc7c6C(=O)N(C6CCC(=O)NC6=O)C7=O)CC5)cc4)nc23)c1 (stereo not drawn),"probe labelling, inhibitor, KiNativ chemoproteomics",MOLT-4,1 µM,,inhibition,30.1%
NC(=O)C[C@H]1CCc2sc3ncnc(O[C@H]4CC[C@H](N5CCOCC5)CC4)c3c21,"enzyme activity, inhibitor",,10 µM,,inhibition,3%
